# Assay results pooled from the literature.
# Every numbered part comes from another study and shows a few of its results, in no order.

# Set 1
# Target: Sal-like protein 4, full length isoform B (SALL4, Homo sapiens, UniProt Q9UJQ4-2, residues 1-616)
# Method: universal PBM
# Form: double-stranded DNA, one strand shown
# Sample: in vitro
# Concentration: not given
# Setting: 8-mer, flanks averaged, mean of replicates
# Direction: higher = stronger binding
# Target sequence (chain): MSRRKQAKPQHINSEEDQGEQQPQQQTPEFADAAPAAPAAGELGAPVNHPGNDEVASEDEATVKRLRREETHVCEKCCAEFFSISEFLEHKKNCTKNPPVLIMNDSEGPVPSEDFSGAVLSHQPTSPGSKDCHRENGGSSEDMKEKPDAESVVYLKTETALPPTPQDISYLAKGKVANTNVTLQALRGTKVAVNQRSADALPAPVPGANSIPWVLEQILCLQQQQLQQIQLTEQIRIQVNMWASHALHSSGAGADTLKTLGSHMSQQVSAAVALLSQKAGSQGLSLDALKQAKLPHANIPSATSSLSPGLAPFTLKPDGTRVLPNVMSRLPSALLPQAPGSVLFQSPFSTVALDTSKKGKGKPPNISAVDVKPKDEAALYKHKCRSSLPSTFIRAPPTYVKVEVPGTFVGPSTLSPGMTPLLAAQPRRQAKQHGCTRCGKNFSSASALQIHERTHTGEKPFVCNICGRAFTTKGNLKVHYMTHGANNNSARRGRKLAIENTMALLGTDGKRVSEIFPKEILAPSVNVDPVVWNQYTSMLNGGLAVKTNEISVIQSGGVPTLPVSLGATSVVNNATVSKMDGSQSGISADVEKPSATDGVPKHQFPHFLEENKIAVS
Strand,E-score
ATGCAGTA,0.117
AGTCTTAT,0.237
CCGAGCTA,-0.105
AGACGCCG,-0.228
TCGTGAAA,-0.0318
CGAAACCC,-0.316
CATTAGCA,0.134
AGCTACAG,-0.122

# Set 2
# Target: Replicase polyprotein 1ab, main protease (rep, Severe acute respiratory syndrome coronavirus 2, UniProt P0DTD1)
# Read-out: enzyme activity
# Mode: inhibitor
Structure (SMILES),IC50
CCC[C@H](NC(=O)/C(C#N)=C/c1cccc(Br)n1)c1ccccc1,> 20 µM
Cc1ccc(-n2sc3ccccc3c2=O)cc1,0.05 µM
C=C1c2cccc(O)c2C(=O)C2C(=O)[C@]3(O)C(=O)C(C(N)=O)C(=O)[C@@H](N(C)C)[C@@H]3[C@@H](O)[C@H]12 (stereo partly shown),> 20 µM

# Set 3
# Target: RNA binding protein fox-1 homolog 2, RRM domain, GST-SBP tag (RBFOX2, Homo sapiens, UniProt O43251-10, residues 100-194)
# Method: RNA Bind-n-Seq
# Form: RNA
# Sample: in vitro
# Concentration: 365 nM
# Setting: natural RNA segment, single round, ends assumed
# Baseline: no-protein control
# Direction: higher = stronger binding
Strand,RBNS enrichment (R)
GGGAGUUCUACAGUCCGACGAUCCAACCUUCCCCAGCUCCAAUAUGUAGCAGUCUCUCUGGAUGGCGGAGAGUGAAGGAGACGGAGAAACGCGCCCCAUCCCUUCCGCCGCCUCCUUUCCCCCCCGACCCUAUUGGAAUUCUCGGGUGCCAA,0.492
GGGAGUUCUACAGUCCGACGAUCAGAAAUUCUAAUUGUUAGAAAUCCUUCCUUAUAAUGAAUGAAUUCUGCUUUCCUAUAAUUUCUACCUAUUGGGCCUUGUUCUGUUCUCUGGAACUAAACAGAACAACCAUUGGAAUUCUCGGGUGCCAA,0.43
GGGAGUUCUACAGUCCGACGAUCGGGCAGAGCUCAGGACAUUUGCCAGUUCCAGAUCUCUUUUUCAGCAUUUUCAUGGAAUUAAUUUACACGUAAUGAGGGAAGUCCUAGGAUGGAUAGAAAAAAAGCACUUAUGGAAUUCUCGGGUGCCAA,0.634
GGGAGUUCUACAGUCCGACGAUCCCAAUCUCUCCCAGCUCUCUUCUUUCCUCCCUGGCCUUUGUCCUGCAGGAGGUAGCAUCACCUCUUGGCAUUUUGUACAUGCUUUUAAACAAUUGGAGGAGCUGCCCAGGUGGAAUUCUCGGGUGCCAA,0.719
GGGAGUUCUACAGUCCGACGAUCGGUGGGGCUUGUUUCCUGAAACCAUGAUGUACUUUUUCAUACAUGAGUCUGUCCAGAGUGCUUGCUACCGUGUUCGGAGUCUCGCUGCCUCCCUCCCGCGGGAGGUUUCUUGGAAUUCUCGGGUGCCAA,0.405
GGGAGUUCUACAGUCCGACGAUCGUAUUGUUUGGCUUUCUGAGGGAUGUUAGUGCCAAACUUGUAUAGGAGUGGGGUGCUGUCUUCCACUGACACCCAGGUCCAGAAUCCUUGGUCUUGAGCCCCUGUCCUUUUGGAAUUCUCGGGUGCCAA,0.39
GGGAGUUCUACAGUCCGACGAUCCAGCAGACCUGUGAGCCAGCCAGGGACCGGACUAGAAGCCAUGUUGCAUAUUGGGGUUUUUGUUUGUUUGUUUUUUAAGCACUUACCAAGUGCCCUAUCCCUGGCAGGCCUGGAAUUCUCGGGUGCCAA,1.37
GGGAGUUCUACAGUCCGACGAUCUGUGUUUGGCACUCUGCUAGACGUUUUACUGGUAUUAACCGAUUUAAUCCUCACAAUAACGAAGUAUGUACUACUAUAAUUGCCAGUUUACAGACGAGAAAACUAAGGCAUGGAAUUCUCGGGUGCCAA,1.02

# Set 4
# Target: Histone acetyltransferase KAT6A, winged helix 2, GST fusion (KAT6A, Homo sapiens, UniProt Q92794, residues 85-181)
# Method: protein binding microarray
# Form: double-stranded DNA, one strand shown
# Sample: in vitro
# Concentration: not given
# Setting: 8-mer, flanks averaged, mean of 2 arrays, mostly near background
# Baseline: not given
# Direction: higher = stronger binding
# Target sequence (chain): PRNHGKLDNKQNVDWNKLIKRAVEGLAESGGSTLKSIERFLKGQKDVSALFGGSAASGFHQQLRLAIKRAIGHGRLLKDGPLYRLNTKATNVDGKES
Strand,E-score
ACCTGGCA,0.102
ATGGCCTG,0.199
CTAAACTC,-0.0419
CCGTGTAA,-0.0412
CAAAAGTA,0.119
GTGAGCAA,0.0646
CCGCGATC,0.106
TCACAAGA,-0.0794

# Set 5
# Target: Replicase polyprotein 1ab, polymerase (rep, Severe acute respiratory syndrome coronavirus 2, UniProt P0DTD1)
# Read-out: enzyme activity
# Mode: inhibitor
# Concentration: 20 µM
Compound,inhibition [%]
CNC(=C[N+](=O)[O-])NCCSCc1csc(CN(C)C)n1,-2.05
CCCC(=O)O[C@]1(C(=O)CO)CC[C@H]2[C@@H]3CCC4=CC(=O)CC[C@]4(C)[C@H]3[C@@H](O)C[C@@]21C,2.73
CCc1cnc(N2CCC(c3nc(COc4ccc(-n5cnnn5)cc4)cs3)CC2)nc1,-1.98
Oc1c(I)cc(I)c(O)c1I,3.65
CSc1ccc(C(=O)/C=C/c2cc(C)c(OC(C)(C)C(=O)O)c(C)c2)cc1,-2.85
CCN(CC)CCNC(=O)c1ccc(N)cc1,27.2
N[C@@]1(C(=O)O)CC[C@H]2[C@H](C(=O)O)[C@H]21,3.25
CC(C)CNc1nc(-c2cccc3ncccc23)cn2c(-c3ccc(C(=O)NC4CC4)cc3)cnc12,-7.11
CN1[C@@H]2CC[C@H]1CC(OC(c1ccccc1)c1ccc(Cl)cc1)C2 (stereo partly shown),2.94
Oc1ccc2ccccc2c1SSc1c(O)ccc2ccccc12,3.12
NC(=O)c1cc[n+](CC2=C(C(=O)O)N3C(=O)[C@@H](NC(=O)[C@@H](c4ccccc4)S(=O)(=O)[O-])[C@H]3SC2)cc1,1.11
CC(=O)O[C@]1(C(C)=O)CC[C@H]2[C@@H]3CCC4=CC(=O)CC[C@]4(C)[C@H]3CC[C@@]21C,-12.1
COc1c(C)c2c(c(O)c1C/C=C(\C)CCC(=O)O)C(=O)OC2,19.6
CO/N=C(\C(=O)N[C@@H]1C(=O)N2C(C(=O)OC(C)OC(C)=O)=C(COC(N)=O)CS[C@H]12)c1ccco1 (stereo partly shown),0.04
COc1ccc([C@]2(O)CC[C@@H](N3CC[C@@H](NC(=O)CNC(=O)c4cccc(C(F)(F)F)c4)C3)CC2)cn1,3.64
C[N+](C)(C)CCOP(=O)([O-])OC[C@H](O)CO,-0.93
CC[C@H]1OC(=O)[C@H](C)[C@@H](O[C@H]2C[C@@](C)(OC)[C@@H](O)[C@H](C)O2)[C@H](C)[C@@H](O[C@@H]2O[C@H](C)C[C@H](N(C)C)[C@H]2O)[C@](C)(OC)C[C@@H](C)C(=O)[C@H](C)[C@@H](O)[C@]1(C)O,-21.7
Fc1ccc(C(OCCN2CCN(C/C=C/c3ccccc3)CC2)c2ccc(F)cc2)cc1,0.2
O=C(NC1Cc2ccccc2N(C[C@@H](O)CO)C1=O)c1cc2cc(Cl)sc2[nH]1 (stereo partly shown),-2.13
c1ccc(-c2n[nH]c3c2oc2ccccc23)cc1,-5
CC(=O)[C@@]1(O)CC[C@H]2[C@@H]3C=C(Cl)C4=CC(=O)[C@@H]5C[C@@H]5[C@]4(C)[C@H]3CC[C@@]21C,-9.45
Fc1cc(F)c2c(c1)[C@H]1C=CC[C@H]1C(c1cccnc1)N2 (mixture of isomers),-1.64
CCCCCCCCCCCCCCC[C@@H](O)[C@@H](N)CO,-2.3
COc1cc(N2CCOCC2)ccc1Nc1ncc(Cl)c(Nc2ccccc2NS(C)(=O)=O)n1,4.38
CC(=O)Nc1nc2c(Oc3cc(-c4ccc(C(F)(F)F)cc4)ncn3)cccc2s1,8.6

# A few entries again (set 5):
Compound,inhibition [%]
Fc1ccc(C(OCCN2CCN(C/C=C/c3ccccc3)CC2)c2ccc(F)cc2)cc1,0.2
O=C(NC1Cc2ccccc2N(C[C@@H](O)CO)C1=O)c1cc2cc(Cl)sc2[nH]1 (stereo partly shown),-2.13
c1ccc(-c2n[nH]c3c2oc2ccccc23)cc1,-5
